{"data": "Published values of several laboratories", "note": "Every numbered part comes from another study and shows a few of its results, in no order. Changes are numbered by the printed parent chain."}
{"data": "Set 1", "target": "ABI1, truncated, D143A, DHFR fusion (Arabidopsis thaliana)", "method": "DHFR PCA, deep sequencing", "sample": "yeast", "setting": "methotrexate growth selection, single substitutions", "together with": "(+)-ABA 58 µM", "baseline": "wild-type fitted maximum", "reading": "higher = stronger binding", "starting sequence": "PYL1, truncated, DHFR fusion (Arabidopsis thaliana); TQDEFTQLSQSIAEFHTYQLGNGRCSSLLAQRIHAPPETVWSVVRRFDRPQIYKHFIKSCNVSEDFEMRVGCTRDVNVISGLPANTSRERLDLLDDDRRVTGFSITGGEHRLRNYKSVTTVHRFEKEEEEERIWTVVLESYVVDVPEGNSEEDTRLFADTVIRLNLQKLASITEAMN"}
{"Substitution": "V118N", "relative binding score [%]": 65.3}
{"Substitution": "H55K", "relative binding score [%]": 92.3}
{"Substitution": "P146F", "relative binding score [%]": 6.27}
{"Substitution": "E147C", "relative binding score [%]": 75.7}
{"Substitution": "D65V", "relative binding score [%]": 69.7}
{"Substitution": "L112V", "relative binding score [%]": 12.2}
{"Substitution": "H122W", "relative binding score [%]": -14.8}
{"Substitution": "L28K", "relative binding score [%]": 57}
{"data": "Set 2", "target": "Prothrombin, mature alpha-thrombin (F2, Homo sapiens, UniProt P00734)", "method": "aptamer microarray, sandwich", "form": "DNA with 2'F-ANA", "sample": "in vitro", "tested at": "200 nM", "setting": "whole 15-mer aptamer, many near background", "together with": "Cy3 exosite-II aptamer, 400 nM", "reading": "higher = stronger binding", "strand": "GGTTGGTGTGGTTGG"}
{"Modification": "2'F-ANA at 1 2 3 5 6 10 11 15", "mean fluorescence intensity": "49.4 a.u."}
{"Modification": "2'F-ANA at 1 2 6 12 15", "mean fluorescence intensity": "300 a.u."}
{"Modification": "2'F-ANA at 2 3 4 6 8 11 14 15", "mean fluorescence intensity": "249 a.u."}
{"Modification": "2'F-ANA at 1 2 4 6 9 14 15", "mean fluorescence intensity": "47.5 a.u."}
{"Modification": "2'F-ANA at 2 4 5 6 7 10 13 15", "mean fluorescence intensity": "51.3 a.u."}
{"Modification": "2'F-ANA at 1 3 4 5 6 10 12 13 14 15", "mean fluorescence intensity": "48.7 a.u."}
{"Modification": "2'F-ANA at 4 13", "mean fluorescence intensity": "208 a.u."}
{"Modification": "2'F-ANA at 3 4 5 10 11 12 13 14 15", "mean fluorescence intensity": "61.4 a.u."}
{"data": "Set 3", "target": "Centromere-binding protein 1, full length, N-terminal tag (CBF1, Saccharomyces cerevisiae, UniProt P17106, residues 1-351)", "method": "protein-binding microarray", "form": "double-stranded DNA, one strand shown", "sample": "in vitro", "tested at": "0.8 µM", "setting": "whole 60-bp probe, no competitor", "reading": "higher = stronger binding", "constant ends, left off below": "… GTCTTGATTCGCTTGACGCTGCTG", "chain of UniProt P17106 (whole entry, looked up)": "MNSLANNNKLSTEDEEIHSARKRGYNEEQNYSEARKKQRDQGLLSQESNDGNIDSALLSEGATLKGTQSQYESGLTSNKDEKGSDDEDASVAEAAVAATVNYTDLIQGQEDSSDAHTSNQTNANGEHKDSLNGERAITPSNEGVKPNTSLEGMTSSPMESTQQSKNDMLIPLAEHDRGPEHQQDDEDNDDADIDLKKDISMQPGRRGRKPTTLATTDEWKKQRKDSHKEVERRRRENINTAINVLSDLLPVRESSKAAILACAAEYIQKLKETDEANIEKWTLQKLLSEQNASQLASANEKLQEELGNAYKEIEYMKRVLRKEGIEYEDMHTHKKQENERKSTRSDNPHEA"}
{"Strand": "GAATCTTATTTTTTTAACACCACCTCCTGAAAGTAG", "fluorescence intensity [a.u.]": 533}
{"Strand": "CTACTGGGAAATGCCAACGTGGTCAGACATCAATTC", "fluorescence intensity [a.u.]": 716}
{"Strand": "CTATGTTGTCAAGTGATCATTAATAATAACATGTTC", "fluorescence intensity [a.u.]": 2340}
{"Strand": "CTACTACAATTCATTGTCATGATGTACATAGAATTC", "fluorescence intensity [a.u.]": 549}
{"Strand": "GAAGTAATTAATGGTGACATGACATGTTATAGCTAG", "fluorescence intensity [a.u.]": 608}
{"Strand": "CTATTCATAATTTATTTGGTGACATTTCTCTTGTTC", "fluorescence intensity [a.u.]": 561}
{"Strand": "CTACTTCGACATGATCACGTAAAACAACAACCATTC", "fluorescence intensity [a.u.]": 725}
{"Strand": "GAAAGGTCATGATGAAACGTGCTTGGCAATATATAG", "fluorescence intensity [a.u.]": 694}
{"data": "Single results of other studies"}
{"Sequence": "KTFEWGVFY", "target": "HLA class I histocompatibility antigen, A alpha chain, allele A*80:01 (Homo sapiens, UniProt P04439)", "test": "peptide-MHC binding", "test system": "peptide", "setting": "concentration not given", "quantity": "binding", "value": "inactive"}
{"note": "For quick reference, copied from above (set 2):"}
{"Modification": "2'F-ANA at 1 2 6 12 15", "mean fluorescence intensity": "300 a.u."}
{"Modification": "2'F-ANA at 2 3 4 6 8 11 14 15", "mean fluorescence intensity": "249 a.u."}
